Measured values from different studies.
Lines come from different studies, so protocols differ. Several values in a cell are separate wells, animals, samples, runs or records. Numbers after ± are the reported error.
GLP1R: Glucagon-like peptide 1 receptor (GLP1R, Homo sapiens, UniProt P43220)
UniProt P16152, sequence (whole entry, looked up): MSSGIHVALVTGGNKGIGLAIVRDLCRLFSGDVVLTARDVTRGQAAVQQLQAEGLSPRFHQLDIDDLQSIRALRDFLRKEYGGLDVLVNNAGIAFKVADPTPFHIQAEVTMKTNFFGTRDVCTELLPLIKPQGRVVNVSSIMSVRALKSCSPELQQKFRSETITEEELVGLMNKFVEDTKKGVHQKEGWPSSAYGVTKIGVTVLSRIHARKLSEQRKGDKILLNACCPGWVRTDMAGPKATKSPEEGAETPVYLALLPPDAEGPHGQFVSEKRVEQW

Compound | tested on | assay | test system | conditions | scale | measurement | result
O=S(=O)(Nc1ccccc1)c1ccc(NC(=S)Nc2ccccc2)cc1 |  | item: Glu | female mouse, blood | oral, 80 mg/kg daily, 14 days |  | blood chemistry level | 187 mg/dL
C[C@H]1CN(c2n[nH]c3nc(N[C@H]4CC[C@H](NS(=O)(=O)CCC(F)(F)F)CC4)ncc23)CCO1 | Carbonyl reductase [NADPH] 1 (CBR1, Homo sapiens, UniProt P16152) | inhibitor, Kinobeads competition profiling |  | 0.8 µM | reference: vehicle | relative abundance | 1
CC[C@H](C)[C@H](NC(=O)[C@H](Cc1ccccc1)NC(=O)[C@H](CCC(=O)O)NC(=O)[C@H](CCCNC(=N)N)NC(=O)[C@H](C)NC(=O)[C@H](C)NC(=O)[C@H](CCC(N)=O)NC(=O)[C@H](CCC(=O)O)NC(=O)[C@H](CCC(=O)O)NC(=O)[C@H](CC(C)C)NC(=O)[C@H](Cc1ccc(O)cc1)NC(=O)[C@H](CO)NC(=O)[C@H](CO)NC(=O)[C@@H](NC(=O)[C@H](CC(=O)O)NC(=O)[C@H](CO)NC(=O)[C@@H](NC(=O)[C@H](Cc1ccccc1)NC(=O)[C@@H](NC(=O)CNC(=O)[C@H](CCC(=O)O)NC(=O)[C@H](C)NC(=O)CCc1cnc[nH]1)[C@@H](C)O)[C@@H](C)O)C(C)C)C(=O)N[C@@H](C)C(=O)N[C@@H](Cc1c[nH]c2ccccc12)C(=O)N[C@@H](CC(C)C)C(=O)N[C@H](C(=O)N[C@@H](CCCCNC(=O)COCCOCCNC(=O)COCCOCCNC(=O)CC[C@H](NC(=O)CCCCCCCCCCCCCCCCC(=O)O)C(=O)O)C(=O)NCC(=O)N[C@@H](CCCNC(=N)N)C(=O)N[C@@H](CCCCNc1c(NCCCCCN(O)C(=O)CCC(=O)NCCCCCN(O)C(=O)CCC(=O)NCCCCCN(O)C(C)=O)c(=O)c1=O)C(=O)NCC(=O)NCC(=O)N[C@@H](CO)C(=O)N[C@@H](CCCCNc1c(NCCCCCN(O)C(=O)CCC(=O)NCCCCCN(O)C(=O)CCC(=O)NCCCCCN(O)C(C)=O)c(=O)c1=O)C(=O)O)C(C)C | GLP1R | cAMP reporter gene, agonist, CRE luciferase | BHK | without Zr, 1% HSA |  | EC50 | 0.16 nM
CC(C)C[C@H](NC(=O)[C@H](CCC(N)=O)NC(=O)[C@H](C)NC(=O)[C@H](C)NC(=O)[C@H](CCCNC(=N)N)NC(=O)[C@H](CCCNC(=N)N)NC(=O)[C@H](CCCNC(=N)N)NC(=O)[C@H](CC(C)C)NC(=O)[C@H](Cc1c[nH]cn1)NC(=O)[C@@H](NC(=O)[C@H](CCCCN)NC(=O)[C@H](CCCNC(=N)N)NC(=O)[C@H](CCCNC(=N)N)NC(=O)[C@H](CCCNC(=N)N)NC(=O)[C@H](CCC(N)=O)NC(=O)[C@H](CCCNC(=N)N)NC(=O)[C@H](CCCNC(=N)N)NC(=O)[C@H](CCCCN)NC(=O)[C@H](CCCCN)NC(=O)[C@H](CCCNC(=N)N)NC(=O)CNC(=O)[C@@H](N)Cc1ccc(O)cc1)[C@@H](C)O)C(=O)N[C@@H](CCCCN)C(N)=O |  | flinch-jump test | rat | intra-CA1 bilateral, dose not given |  | jump threshold | no effect
COc1cc2c(Oc3ccc4[nH]c(C)cc4c3F)ccnc2cc1OCC1(N)CC1 |  |  | paediatric refractory sarcoma patients | 8 mg |  | grade 1-2 QTc prolongation | 0%
CN1CC[C@@H](c2c(O)cc(O)c3c(=O)cc(-c4ccc(C(F)(F)F)cc4Cl)oc23)[C@@H]1CO |  | item: Anemia | relapsed AML | oral, 200 mg, grade 3-4, intermittent dosing |  | patients with adverse event | 30%
OCc1cn(Cc2cccc(Cl)c2)c2ccccc12 |  |  | F344 rat, male, affected animals, liver | oral, 150 mg/kg/day, 2 days, score 0 to 4, mean | direction not given | liver toxicity severity score | 4
C[C@]1(CO)Cc2ncn(-c3ccc(C#N)c(Cl)c3)c2C(=O)O1 |  |  | human | 20 mg multiple doses, fasted |  | subjects with drug-related headache | 0%
Nc1ncnc2c1ncn2[C@@H]1O[C@@H]2COP(=O)([S-])O[C@@H]3[C@H](O)[C@@H](COP([O-])(=S)O[C@H]2[C@H]1O)O[C@H]3n1cnc2c(N)ncnc21.[Na+].[Na+] (some centres unmarked) |  |  | non-tumor-bearing mice, serum | intravenous, 1 mg/kg, toxicity study |  | ALT | 67.5 ± 12.4 U/L
COc1cccc(Oc2ccccc2NC(=O)CNC(=O)c2cccc3ccccc23)c1 |  |  | esterase-deficient SCID mice, male | oral, 15 mg/kg/day, 14 days, toxicity study |  | blood urea nitrogen | 37 mg/dL and 36 mg/dL and 30 mg/dL
COc1ncnn2ccc(-c3cnc4nc(C)n(Cc5nnc([C@@H](C)F)o5)c4c3)c12 |  |  | human | oral, dose not given, grade 3 |  | patients with fatigue | 0%
CC[C@H](C)[C@H](NC(=O)[C@H](Cc1ccccc1)NC(=O)[C@H](CCC(=O)O)NC(=O)[C@H](CCCNC(=N)N)NC(=O)[C@H](C)NC(=O)[C@H](C)NC(=O)[C@H](CCC(N)=O)NC(=O)[C@H](CCCCNc1c(NCCCCCN(O)C(=O)CCC(=O)NCCCCCN(O)C(=O)CCC(=O)NCCCCCN(O)C(C)=O)c(=O)c1=O)NC(=O)[C@H](CCC(=O)O)NC(=O)[C@H](CC(C)C)NC(=O)[C@H](Cc1ccc(O)cc1)NC(=O)[C@H](CO)NC(=O)[C@H](CO)NC(=O)[C@@H](NC(=O)[C@H](CC(=O)O)NC(=O)[C@H](CO)NC(=O)[C@@H](NC(=O)[C@H](Cc1ccccc1)NC(=O)[C@@H](NC(=O)CNC(=O)[C@H](CCC(=O)O)NC(=O)[C@H](C)NC(=O)CCc1cnc[nH]1)[C@@H](C)O)[C@@H](C)O)C(C)C)C(=O)N[C@@H](C)C(=O)N[C@@H](Cc1c[nH]c2ccccc12)C(=O)N[C@@H](CC(C)C)C(=O)N[C@H](C(=O)N[C@@H](CCCNC(=N)N)C(=O)NCC(=O)N[C@@H](CCCNC(=N)N)C(=O)N[C@@H](CCCCNC(=O)COCCOCCNC(=O)COCCOCCNC(=O)CC[C@H](NC(=O)CCCCCCCCCCCCCCCCC(=O)O)C(=O)O)C(=O)NCC(=O)NCC(=O)N[C@@H](CO)C(=O)N[C@@H](CCCCNc1c(NCCCCCN(O)C(=O)CCC(=O)NCCCCCN(O)C(=O)CCC(=O)NCCCCCN(O)C(C)=O)c(=O)c1=O)C(=O)O)C(C)C | GLP1R | cAMP reporter gene, agonist, CRE luciferase | BHK | with Zr, 1% HSA |  | EC50 | 0.067 nM
CC(C)C[C@H](NC(=O)C[C@H](O)[C@H](CC(C)C)NC(=O)[C@H](Cc1c[nH]cn1)NC(=O)CNC(=O)[C@@H](NC(=O)[C@H](C)NC(=O)[C@H](Cc1c[nH]c2ccccc12)NC(=O)[C@H](CCC(N)=O)NC(=O)[C@@H](Cc1ccccc1)NC(=O)CCNC(=O)CCSc1nnc(NCCC(=O)NCCC(=O)NCCCC[C@H](NC(=O)N[C@@H](CCC(=O)O)C(=O)O)C(=O)O)c2c1CCC1C(CC2)C1COC(=O)NCCNC(=O)CC[C@H](C(=O)O)N1CCN(CC(=O)O)CCN(CC(=O)O)CC1)C(C)C)C(N)=O (some centres unmarked) [gallium-68 labelled] |  |  | athymic NMRI nude mice, PC-3 xenograft, tumour | intravenous, 2 h, together with: bombesin 480 nmol co-injected |  | tissue uptake | 0.37 %ID/g
CO[C@H]1C[C@@H]2CC[C@@H](C)[C@@](O)(O2)C(=O)C(=O)N2CCCC[C@H]2C(=O)O[C@H]([C@H](C)C[C@@H]2CC[C@@H](OC(=O)NCCOCCOCCOCCOCCOCCOCCOCCOCCC(=O)N3CCc4cc(Cn5nc(-c6ccc7oc(N)nc7c6)c6c(N)ncnc65)ccc4C3)[C@H](OC)C2)C[C@@H](O)[C@H](C)/C=C(\C)[C@@H](O)[C@@H](OC)C(=O)[C@H](C)C[C@H](C)/C=C/C=C/C=C/1C |  |  | patients with advanced solid tumours | intravenous, 10 mg weekly, grade 3 or higher |  | constipation incidence | 0%
